Results pooled from the literature.
Numbered parts are unrelated; each lists some results of a single study.
Sequence of UniProt P35462 (whole entry, looked up): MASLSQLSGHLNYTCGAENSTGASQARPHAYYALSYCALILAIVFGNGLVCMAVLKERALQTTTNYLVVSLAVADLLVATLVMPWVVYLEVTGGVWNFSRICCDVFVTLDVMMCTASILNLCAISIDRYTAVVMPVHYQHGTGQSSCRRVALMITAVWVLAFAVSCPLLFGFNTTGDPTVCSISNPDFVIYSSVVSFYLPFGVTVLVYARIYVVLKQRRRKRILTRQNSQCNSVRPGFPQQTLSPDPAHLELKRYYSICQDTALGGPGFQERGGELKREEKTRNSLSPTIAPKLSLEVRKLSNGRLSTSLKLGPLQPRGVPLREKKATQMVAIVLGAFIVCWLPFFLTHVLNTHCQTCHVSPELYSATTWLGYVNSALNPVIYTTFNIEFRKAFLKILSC
Sequence of UniProt P06493 (whole entry, looked up): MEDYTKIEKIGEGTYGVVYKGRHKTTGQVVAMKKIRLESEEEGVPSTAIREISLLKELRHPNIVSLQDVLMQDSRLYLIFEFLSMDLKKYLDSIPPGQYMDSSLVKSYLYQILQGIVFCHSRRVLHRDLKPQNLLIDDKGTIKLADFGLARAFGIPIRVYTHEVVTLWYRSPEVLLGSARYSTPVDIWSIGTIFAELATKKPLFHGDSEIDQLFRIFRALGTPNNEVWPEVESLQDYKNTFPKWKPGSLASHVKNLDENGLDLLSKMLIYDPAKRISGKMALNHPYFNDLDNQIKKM
Sequence of UniProt P51956 (whole entry, looked up): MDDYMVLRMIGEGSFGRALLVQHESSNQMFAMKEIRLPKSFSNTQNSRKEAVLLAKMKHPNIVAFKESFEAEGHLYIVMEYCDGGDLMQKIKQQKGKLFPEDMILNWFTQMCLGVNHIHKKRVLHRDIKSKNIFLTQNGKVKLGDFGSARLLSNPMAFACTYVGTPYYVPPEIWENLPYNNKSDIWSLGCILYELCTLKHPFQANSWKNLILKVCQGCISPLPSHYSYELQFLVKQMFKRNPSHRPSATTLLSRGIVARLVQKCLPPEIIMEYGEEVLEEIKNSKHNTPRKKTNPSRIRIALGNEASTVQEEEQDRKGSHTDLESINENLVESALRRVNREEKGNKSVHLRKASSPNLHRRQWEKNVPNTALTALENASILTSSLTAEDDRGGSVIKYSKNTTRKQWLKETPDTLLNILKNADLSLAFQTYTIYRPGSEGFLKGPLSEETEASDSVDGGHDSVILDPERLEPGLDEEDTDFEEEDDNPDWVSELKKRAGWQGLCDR
Sequence of UniProt O75914 (whole entry, looked up): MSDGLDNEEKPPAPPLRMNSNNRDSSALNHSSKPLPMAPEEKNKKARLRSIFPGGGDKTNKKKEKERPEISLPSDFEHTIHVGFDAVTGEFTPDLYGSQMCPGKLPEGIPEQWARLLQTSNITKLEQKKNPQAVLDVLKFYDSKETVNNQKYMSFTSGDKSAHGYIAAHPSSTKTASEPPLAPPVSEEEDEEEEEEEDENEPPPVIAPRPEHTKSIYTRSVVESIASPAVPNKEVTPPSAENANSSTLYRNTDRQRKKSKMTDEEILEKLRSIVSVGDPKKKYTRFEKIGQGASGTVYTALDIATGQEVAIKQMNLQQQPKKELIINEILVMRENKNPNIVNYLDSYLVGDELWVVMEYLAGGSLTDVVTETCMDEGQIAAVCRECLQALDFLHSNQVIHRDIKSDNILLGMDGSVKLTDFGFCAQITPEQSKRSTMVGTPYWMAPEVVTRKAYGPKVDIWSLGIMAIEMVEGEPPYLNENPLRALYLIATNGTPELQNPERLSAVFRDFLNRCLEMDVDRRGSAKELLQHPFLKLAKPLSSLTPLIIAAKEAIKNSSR
Sequence of UniProt O75676 (whole entry, looked up): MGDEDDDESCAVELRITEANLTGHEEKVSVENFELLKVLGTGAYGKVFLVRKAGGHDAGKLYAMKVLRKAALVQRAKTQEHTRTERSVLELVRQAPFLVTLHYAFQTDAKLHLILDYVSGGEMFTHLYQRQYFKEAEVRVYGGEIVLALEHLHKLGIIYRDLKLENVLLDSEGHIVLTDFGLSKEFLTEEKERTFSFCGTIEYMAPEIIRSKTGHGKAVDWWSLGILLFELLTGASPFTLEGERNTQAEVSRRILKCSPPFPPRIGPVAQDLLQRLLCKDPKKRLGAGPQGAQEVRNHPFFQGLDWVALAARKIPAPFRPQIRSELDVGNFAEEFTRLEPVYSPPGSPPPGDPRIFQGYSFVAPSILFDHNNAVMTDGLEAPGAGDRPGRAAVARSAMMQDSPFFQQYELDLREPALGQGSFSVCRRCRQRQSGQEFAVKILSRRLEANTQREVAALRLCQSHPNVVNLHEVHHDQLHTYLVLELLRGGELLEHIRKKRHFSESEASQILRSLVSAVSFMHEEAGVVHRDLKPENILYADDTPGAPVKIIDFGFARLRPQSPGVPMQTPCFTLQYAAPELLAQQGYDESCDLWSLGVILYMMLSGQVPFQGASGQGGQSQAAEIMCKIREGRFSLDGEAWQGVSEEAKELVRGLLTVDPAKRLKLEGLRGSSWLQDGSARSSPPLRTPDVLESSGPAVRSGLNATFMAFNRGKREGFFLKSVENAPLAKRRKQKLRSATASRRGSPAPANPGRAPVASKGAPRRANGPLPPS
Sequence of UniProt Q16832 (whole entry, looked up): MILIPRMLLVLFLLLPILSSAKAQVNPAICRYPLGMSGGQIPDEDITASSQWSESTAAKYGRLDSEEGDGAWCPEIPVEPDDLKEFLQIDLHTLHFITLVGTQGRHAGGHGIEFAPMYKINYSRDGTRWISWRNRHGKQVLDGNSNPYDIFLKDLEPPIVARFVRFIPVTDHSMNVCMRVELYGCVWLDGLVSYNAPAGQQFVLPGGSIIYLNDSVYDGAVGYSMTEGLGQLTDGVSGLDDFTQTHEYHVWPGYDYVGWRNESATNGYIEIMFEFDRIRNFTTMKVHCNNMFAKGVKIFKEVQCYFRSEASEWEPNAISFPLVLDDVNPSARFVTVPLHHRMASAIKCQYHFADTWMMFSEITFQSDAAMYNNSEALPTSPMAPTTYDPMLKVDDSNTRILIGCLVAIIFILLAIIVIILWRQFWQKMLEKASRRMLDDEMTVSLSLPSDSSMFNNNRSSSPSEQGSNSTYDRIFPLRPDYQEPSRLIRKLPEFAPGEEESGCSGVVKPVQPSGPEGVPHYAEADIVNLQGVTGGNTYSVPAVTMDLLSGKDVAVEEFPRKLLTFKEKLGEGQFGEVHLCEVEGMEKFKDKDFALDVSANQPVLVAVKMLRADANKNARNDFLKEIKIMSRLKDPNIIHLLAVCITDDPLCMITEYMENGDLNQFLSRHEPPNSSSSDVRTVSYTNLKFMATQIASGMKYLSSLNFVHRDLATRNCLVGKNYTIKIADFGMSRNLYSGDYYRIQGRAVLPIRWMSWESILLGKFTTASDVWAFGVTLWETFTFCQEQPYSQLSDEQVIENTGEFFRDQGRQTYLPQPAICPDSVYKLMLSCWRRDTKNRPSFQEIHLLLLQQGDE
Sequence of UniProt Q13237 (whole entry, looked up): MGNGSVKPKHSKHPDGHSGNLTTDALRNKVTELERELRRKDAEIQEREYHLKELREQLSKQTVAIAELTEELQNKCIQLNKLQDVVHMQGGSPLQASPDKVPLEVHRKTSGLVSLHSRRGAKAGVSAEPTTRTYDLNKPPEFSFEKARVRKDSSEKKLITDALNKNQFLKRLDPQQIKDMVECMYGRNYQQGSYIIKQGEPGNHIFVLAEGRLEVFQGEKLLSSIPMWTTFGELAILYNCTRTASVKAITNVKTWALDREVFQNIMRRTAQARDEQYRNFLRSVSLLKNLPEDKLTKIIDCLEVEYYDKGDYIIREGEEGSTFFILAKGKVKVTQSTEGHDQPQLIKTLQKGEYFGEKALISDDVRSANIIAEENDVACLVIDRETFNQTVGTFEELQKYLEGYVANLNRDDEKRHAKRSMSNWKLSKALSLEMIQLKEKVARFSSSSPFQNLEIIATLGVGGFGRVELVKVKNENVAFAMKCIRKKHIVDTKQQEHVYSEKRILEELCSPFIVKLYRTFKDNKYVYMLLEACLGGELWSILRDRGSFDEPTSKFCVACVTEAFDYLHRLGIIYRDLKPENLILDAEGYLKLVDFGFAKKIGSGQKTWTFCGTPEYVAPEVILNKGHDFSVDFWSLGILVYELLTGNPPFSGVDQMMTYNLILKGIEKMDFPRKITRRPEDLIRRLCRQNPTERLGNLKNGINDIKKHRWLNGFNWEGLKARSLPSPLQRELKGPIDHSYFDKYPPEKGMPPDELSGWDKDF
Sequence of UniProt P08912 (whole entry, looked up): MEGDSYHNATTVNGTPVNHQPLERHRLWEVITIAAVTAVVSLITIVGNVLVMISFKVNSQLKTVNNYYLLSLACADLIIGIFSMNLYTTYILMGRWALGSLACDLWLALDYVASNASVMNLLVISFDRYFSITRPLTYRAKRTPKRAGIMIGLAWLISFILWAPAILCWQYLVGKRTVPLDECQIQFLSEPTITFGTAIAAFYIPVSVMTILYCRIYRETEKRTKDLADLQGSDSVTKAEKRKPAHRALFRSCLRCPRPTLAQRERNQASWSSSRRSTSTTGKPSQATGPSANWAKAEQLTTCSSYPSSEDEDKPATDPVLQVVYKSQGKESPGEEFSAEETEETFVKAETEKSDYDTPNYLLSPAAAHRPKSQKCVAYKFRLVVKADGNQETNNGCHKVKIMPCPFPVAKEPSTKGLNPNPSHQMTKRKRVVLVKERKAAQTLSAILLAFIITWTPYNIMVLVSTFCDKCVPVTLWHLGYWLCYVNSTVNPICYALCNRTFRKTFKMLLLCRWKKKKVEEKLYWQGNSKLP

Study 1
Target: TAR DNA-binding protein 43, full length, His tag (TARDBP, Homo sapiens, UniProt Q13148, residues 1-414)
Technique: RNA Bind-n-Seq
Molecule type: RNA
Sample: in vitro
Concentration: 20 nM
Notes: 6-mer, flanks averaged, single round
Together with: 150 mM LiCl
Baseline: input library
Direction: higher = stronger binding
Endpoint: 6-mer enrichment (R)
AUUGUA: 0.997
AGAUUU: 0.89
ACUUAC: 0.854
UGUUAC: 1.01
AGUGUG: 2.01
CGACCU: 0.816
UCCGCU: 0.881
GCUGCC: 0.991

Study 2
Target: Prothrombin, mature alpha-thrombin (F2, Homo sapiens, UniProt P00734)
Technique: aptamer microarray, sandwich
Molecule type: DNA with 2'F-ANA
Sample: in vitro
Concentration: 200 nM
Notes: whole 15-mer aptamer, many near background
Together with: Cy3 exosite-II aptamer, 400 nM
Direction: higher = stronger binding
Endpoint: mean fluorescence intensity
Oligonucleotide: GGTTGGTGTGGTTGG
2'F-ANA at 1 3 5 6 13: 50.5 a.u.
2'F-ANA at 2 4 5 7 8 9 10 12 13 15: 47.4 a.u.
2'F-ANA at 1 2 3 4 6 7 8 9 10 11 13: 57.8 a.u.
2'F-ANA at 1 2 4 6 8 11 14: 102 a.u.
2'F-ANA at 1 3 7 12 13 15: 521 a.u.
2'F-ANA at 5 6 11 14: 41.7 a.u.
2'F-ANA at 2 5 7 8 9 11 14: 57.6 a.u.
2'F-ANA at 1 2 3 4 5 6 12 13: 81.8 a.u.

Study 3
Compound: Nc1[nH]nc2nnc(-c3c(-c4ccccc4)nn4ccccc34)cc12
Observed: enzyme activity
Action: inhibitor
Concentration: 0.5 µM
Baseline: control
Endpoint: remaining activity
AKT2 (Homo sapiens, UniProt P31751): 97.5%
RPS6KA4 (Homo sapiens, UniProt O75676): 94.7%
MARK2 (Homo sapiens, UniProt Q7KZI7): 104%
MINK1 (Homo sapiens, UniProt Q8N4C8): 73%
NEK3 (Homo sapiens, UniProt P51956): 82.7%
PAK3 (Homo sapiens, UniProt O75914): 100%
Cyclin-dependent kinase 1, with cyclin A (CDK1, Homo sapiens, UniProt P06493): 101%
PLK3 (Homo sapiens, UniProt Q9H4B4): 100%
Cyclin-dependent kinase 9, with cyclin K (CDK9, Homo sapiens, UniProt P50750): 98.5%
DCLK2 (Homo sapiens, UniProt Q8N568): 100%
DDR2 (Homo sapiens, UniProt Q16832): 101%
CAMK4 (Homo sapiens, UniProt Q16566): 94.2%
PRKG2 (Homo sapiens, UniProt Q13237): 104%

Study 4
Structure (SMILES): CCC(=O)N[C@@H]1CC[C@H](C(=O)N(C)c2ccc(-c3nc4ccccc4o3)cc2)C1
Observed: binding
Technique: radioligand binding
Concentration: 10 µM
Endpoint: inhibition
ADRB1 (Homo sapiens, UniProt P08588): -4.55%
CHRM5 (Homo sapiens, UniProt P08912): 15.4%
DRD3 (Homo sapiens, UniProt P35462): 4.36%

Some of these lines once more (study 2):
2'F-ANA at 2 4 5 7 8 9 10 12 13 15: 47.4 a.u.
2'F-ANA at 1 2 3 4 6 7 8 9 10 11 13: 57.8 a.u.
2'F-ANA at 1 2 4 6 8 11 14: 102 a.u.
2'F-ANA at 1 3 7 12 13 15: 521 a.u.
